Results from different studies.
Each line is one published result; not all experiments were run side by side. Several values in a cell are separate wells, animals, samples, runs or records. ± marks the error that the study gave.

Cc1ccc(N2CC3CCC(C2)N3C)cc1C(=O)N[C@H](C)c1cc(-c2cnn(C)c2)nc2ccccc12 — unbound fraction (mouse, plasma): 5.8% and 5.5%
CCCCCCCCCCCCCCCC(=O)N[C@@H](CCC(=O)NCCOCCOCCC(=O)NCCOCCOCCC(=O)NCCCC[C@H](NC(=O)[C@H](CC(=O)O)NC(=O)[C@H](CC(C)C)NC(=O)[C@H](Cc1ccc(O)cc1)NC(=O)[C@H](CCCCN)NC(=O)[C@H](CO)NC(=O)[C@H](Cc1ccc(O)cc1)NC(=O)[C@H](CC(=O)O)NC(=O)[C@H](CO)NC(=O)[C@@H](NC(=O)[C@H](Cc1ccccc1)NC(=O)[C@@H](NC(=O)CNC(=O)[C@H](CCC(N)=O)NC(=O)[C@@H](CO)NC(=O)[C@@H](N)Cc1c[nH]cn1)[C@@H](C)O)[C@@H](C)O)C(=O)N[C@@H](CCCNC(=N)N)C(=O)N[C@@H](CCCNC(=N)N)C(=O)N[C@@H](C)C(=O)N[C@@H](CCC(N)=O)C(=O)N[C@@H](CC(=O)O)C(=O)N[C@@H](Cc1ccccc1)C(=O)N[C@H](C(=O)N[C@@H](CCC(N)=O)C(=O)N[C@@H](Cc1c[nH]c2ccccc12)C(=O)N[C@@H](CC(C)C)C(=O)N[C@@H](CC(C)C)C(=O)N[C@@H](CC(N)=O)C(=O)N[C@H](C(=O)NCC(=O)NCC(=O)N1CCC[C@H]1C(=O)N[C@@H](CO)C(=O)N[C@@H](CO)C(=O)NCC(=O)N[C@@H](C)C(=O)N1CCC[C@H]1C(=O)N1CCC[C@H]1C(=O)N1CCC[C@H]1C(=O)N[C@@H](CO)C(N)=O)[C@@H](C)O)C(C)C)C(=O)O — serum enzyme activity (refers to: AST; Sprague-Dawley rat, male; subcutaneous, 500 µg/kg once daily, 14 days): 151 ± 16 U/L
CC[C@H](C)[C@H](NC(=O)[C@H](C)NC(=O)[C@H](CCCCN)NC(=O)[C@H](CC(C)C)NC(=O)[C@@H](N)Cc1ccccc1)C(=O)N[C@@H](CCCCN)C(=O)N[C@@H](CCCCN)C(=O)N[C@@H](Cc1ccccc1)C(=O)NCC(=O)N[C@@H](CCCCN)C(=O)N[C@@H](CCC(=O)O)C(=O)N[C@@H](Cc1ccccc1)C(=O)N[C@@H](CCCCN)C(=O)N[C@@H](CCCCN)C(=O)N[C@H](C(=O)NCC(=O)N[C@@H](C)C(=O)N[C@@H](CCCCN)C(=O)N[C@@H](CC(C)C)C(=O)N[C@@H](CCCCN)C(=O)O)[C@@H](C)CC — hemolysis (human red blood cells; 2 mg/L, 1 h, mean of replicates): 0.551%
CC[C@H](C)[C@H](NC(=O)[C@H](CC(N)=O)NC(=O)[C@H](CC(C)C)NC(=O)[C@@H](NC(=O)[C@@H](N)Cc1ccccc1)[C@@H](C)CC)C(=O)N[C@@H](CC(C)C)C(=O)N[C@@H](CC(=O)O)C(=O)N[C@@H](CCCCN)C(N)=O — HC50 (horse erythrocytes; 2 h, 37 °C; baseline: Triton X-100): > 128 µM
O=C1NC2(CC2)COc2ncc(F)cc2[C@H]2COCCN2c2ccn3ncc1c3n2 — organ-to-body weight ratio (Sprague-Dawley rat, female, brain; oral, 5 mg/kg/day, 4 weeks, end of treatment): 0.549 ± 0.04%
CSCC[C@H](N)C(=O)N[C@@H](C)C(=O)N[C@@H](CCCNC(=N)N)C(=O)N[C@@H](CCCNC(=N)N)C(=O)N[C@@H](CC(=O)O)C(=O)N[C@@H](CCCCN)C(=O)N[C@H](C(=O)N[C@@H](CC(=O)O)C(=O)N[C@@H](Cc1ccccc1)C(=O)N[C@@H](C)C(=O)N[C@@H](CCCNC(=N)N)C(=O)N[C@@H](CCCNC(=N)N)C(=O)N[C@@H](CCCNC(=N)N)C(=O)N[C@@H](CCCNC(=N)N)C(=O)NCCCCCC(=O)NCCCCC(NC(=O)CCCCCNC(=O)[C@H](CCCNC(=N)N)NC(=O)[C@H](CCCNC(=N)N)NC(=O)[C@H](CCCNC(=N)N)NC(=O)[C@H](CCCNC(=N)N)NC(=O)[C@H](C)NC(=O)[C@H](Cc1ccccc1)NC(=O)[C@H](CC(=O)O)NC(=O)[C@@H](NC(=O)[C@H](CCCCN)NC(=O)[C@H](CC(=O)O)NC(=O)[C@H](CCCNC(=N)N)NC(=O)[C@H](CCCNC(=N)N)NC(=O)[C@H](C)NC(=O)[C@@H](N)CCSC)[C@@H](C)O)C(=O)NCCCCC(NC(=O)C(CCCCNC(=O)CCCCCNC(=O)[C@H](CCCNC(=N)N)NC(=O)[C@H](CCCNC(=N)N)NC(=O)[C@H](CCCNC(=N)N)NC(=O)[C@H](CCCNC(=N)N)NC(=O)[C@H](C)NC(=O)[C@H](Cc1ccccc1)NC(=O)[C@H](CC(=O)O)NC(=O)[C@@H](NC(=O)[C@H](CCCCN)NC(=O)[C@H](CC(=O)O)NC(=O)[C@H](CCCNC(=N)N)NC(=O)[C@H](CCCNC(=N)N)NC(=O)[C@H](C)NC(=O)[C@@H](N)CCSC)[C@@H](C)O)NC(=O)CCCCCNC(=O)[C@H](CCCNC(=N)N)NC(=O)[C@H](CCCNC(=N)N)NC(=O)[C@H](CCCNC(=N)N)NC(=O)[C@H](CCCNC(=N)N)NC(=O)[C@H](C)NC(=O)[C@H](Cc1ccccc1)NC(=O)[C@H](CC(=O)O)NC(=O)[C@@H](NC(=O)[C@H](CCCCN)NC(=O)[C@H](CC(=O)O)NC(=O)[C@H](CCCNC(=N)N)NC(=O)[C@H](CCCNC(=N)N)NC(=O)[C@H](C)NC(=O)[C@@H](N)CCSC)[C@@H](C)O)C(N)=O)[C@@H](C)O (stereo partly drawn) — tissue distribution (C57BL/6 mouse female, spine; dose not given, 3 h; baseline: total): 7.16%
CC[C@H](C)[C@H](NC(=O)[C@H](CCCCN)NC(=O)CNC(=O)[C@H](CC(C)C)NC(=O)[C@H](Cc1ccccc1)NC(=O)[C@H](CCCCN)NC(=O)[C@H](CO)NC(=O)[C@H](Cc1ccccc1)NC(=O)[C@H](Cc1c[nH]c2ccccc12)NC(=O)[C@H](CCC(N)=O)NC(=O)[C@@H](NC(=O)[C@H](Cc1ccccc1)NC(=O)CCCCCNC(=O)CN1CCN(CC(=O)O)CCN(CC(=O)O)CCN(CC(=O)O)CC1)C(C)C)C(=O)N[C@@H](CCC(=O)O)C(=O)N1CCC[C@H]1C(=O)N[C@@H](CC(=O)O)C(=O)N[C@H](C(=O)N[C@@H](CO)C(=O)N[C@@H](CCC(N)=O)C(=O)N[C@H](C(=O)N[C@@H](CCC(N)=O)C(=O)N[C@@H](CC(=O)O)C(=O)N1CCC[C@H]1C(=O)N[C@@H](CC(N)=O)C(=O)N[C@@H](CC(=O)O)C(=O)N[C@@H](CCC(N)=O)C(=O)N[C@@H](Cc1ccc(O)cc1)C(=O)N[C@@H](CCC(=O)O)C(=O)N1CCC[C@H]1C(=O)N[C@@H](Cc1ccccc1)C(=O)O)C(C)C)C(C)C [copper-64 labelled] — tissue uptake (C57BL/6 male mouse, tumour-naive, lung; 24 h): 6.72 ± 0.6 %ID/g
N#[11C]c1ccc(-c2csc(NN=C3CCCC3)n2)cc1 — radioactivity uptake (C57BL/6 mice, male, lung; intravenous, 3 MBq, 5 min): 7.74 ± 0.16 %ID/g
CC(C)C[C@@H](NC(=O)[C@@H](CCCNC(=N)N)NC(=O)[C@@H](Cc1c[nH]cn1)NC(=O)[C@@H](Cc1c[nH]c2ccccc12)NC(=O)[C@@H](Cc1c[nH]cn1)NC(=O)[C@@H](Cc1ccccc1)NC(=O)[C@H](NC(=O)[C@@H](Cc1ccc(O)cc1)NC(=O)CNC(=O)CNC(=O)CCOCCOCCOCCNC(=O)CN1CCN(CC(=O)O)CCN(CC(=O)O)CC1)[C@H](C)O)C(=O)N[C@H](CC(N)=O)C(=O)N1CCC[C@@H]1C(=O)O [gallium-68 labelled] — tissue uptake (gamma counting; C57BL/6 mice, male, kidney; intravenous, 1.85 MBq, 30 min): 40.9 ± 3.18 %ID/g
[2H]C([2H])([18F])[C@]([2H])(N)C(=O)O — tracer uptake (mouse, bone; 110 min, tumour-bearing): 16.4 %ID/g
CC(=O)N1c2ccc(-c3ccc(CNC(=O)c4cn5cc(-c6cnc(N)nc6)nc(N6CCOCC6)c5n4)cc3)cc2CC[C@@H]1C — maximum tolerated dose (Eµ-Myc lymphoma cells, mouse, Eµ-Myc lymphoma transplant; intraperitoneal, 3 wk): 45 mg/kg
CN1Cc2cc(Cl)ccc2-n2c(nnc2C2CCN(c3cccc([18F])n3)CC2)C1 — tissue uptake (C57BL/6 mouse male, heart; intravenous, 3.7 MBq, 15 min): 4.77 ± 0.79 %ID/g
CC[C@H](C)[C@H](NC(=O)CNC(=O)[C@H](CC(C)C)NC(=O)[C@H](Cc1ccccc1)NC(=O)CN)C(=O)N[C@@H](CC(C)C)C(=O)N[C@@H](Cc1ccccc1)C(=O)N[C@@H](Cc1c[nH]cn1)C(=O)NCC(=O)N[C@H](C(=O)N[C@@H](Cc1c[nH]cn1)C(=O)N[C@@H](Cc1c[nH]cn1)C(=O)NCC(=O)N[C@@H](CCCNC(=N)N)C(=O)N[C@@H](CCCCN)C(=O)N[C@@H](CCCCN)C(=O)N[C@@H](C)C(=O)N[C@@H](CC(C)C)C(=O)N[C@@H](Cc1c[nH]cn1)C(=O)N[C@@H](CCSC)C(=O)N[C@@H](CC(N)=O)C(=O)N[C@@H](CO)C(=O)N[C@@H](CCC(=O)O)C(=O)N[C@@H](CCCNC(=N)N)C(=O)N[C@@H](CCCNC(=N)N)C(=O)N[C@@H](CO)C(=O)O)C(C)C — chronic toxic concentration (zebrafish embryos 4 hpf, E3 medium; 24 h): 5 µM
CC1(C)C(=O)N(c2ccc(C#N)c(C(F)(F)F)c2)C(=S)N1c1ccc(C(=O)O)c(F)c1 — half-life (male human, plasma; oral, 80 mg, single dose, fasted): 228 h
CSCC[C@H](NC(=O)CNC(=O)[C@H](CCCCN)NC(=O)[C@H](CC(C)C)NC(=O)[C@@H]1CCCN1C(=O)[C@H](CO)NC(=O)[C@H](Cc1c[nH]cn1)NC(=O)[C@H](Cc1c[nH]c2ccccc12)NC(=O)[C@H](CCCNC(=N)N)NC(=O)[C@H](CC(C)C)NC(=O)[C@H](CCCNC(=N)N)NC(=O)[C@H](Cc1c[nH]c2ccccc12)NC(=O)[C@H](CS)NC(=O)CCCCCNC(=O)CN1CCN(CC(=O)O)CCN(CC(=O)O)CCN(CC(=O)O)CC1)C(=O)O [copper-64 labelled] — tissue uptake (ex vivo biodistribution; C57BL/6J mice bearing B16-F10 tumours, lung; intravenous, 1.85 MBq, 2 h): 7.29 %ID/g
COc1ccc(CNc2ccc3c(c2)S(=O)(=O)C=C3)cc1 — Gr-1+ CD11b+ cells (flow cytometry; male C57BL/6 mice, spleen; i.p., 5 mg/kg, 8 days; baseline: CD45+ cells): 0.71%
CC1COCCN1c1nc(NCc2cccnc2C(F)(F)F)c2cccnc2n1 (stereo not drawn) — toxicological findings (Sprague Dawley rat; oral, 300 mg/kg once daily, 7 days): no effect
N=C(N)NCCC[C@H](NC(=O)[C@H](CCCNC(=N)N)NC(=O)[C@H](CCCNC(=N)N)NC(=O)[C@H](CCC(N)=O)NC(=O)[C@H](CCCNC(=N)N)NC(=O)[C@H](CCCNC(=N)N)NC(=O)[C@H](CCCCN)NC(=O)[C@H](CCCCN)NC(=O)[C@H](CCCNC(=N)N)NC(=O)CNC(=O)[C@H](Cc1ccc(O)cc1)NC(=O)[C@H](Cc1ccccc1)NC(=O)[C@H](Cc1ccccc1)NC(=O)[C@H](Cc1ccccc1)NC(=O)Cc1ccc2ccccc2c1)C(=O)O — health score (C57BL/6 mice; intraperitoneal, 20 mg/kg, 0.5 h; direction not given): 4.5 ± 0.55

Some of these lines once more:
O=C1NC2(CC2)COc2ncc(F)cc2[C@H]2COCCN2c2ccn3ncc1c3n2 — organ-to-body weight ratio (Sprague-Dawley rat, female, brain; oral, 5 mg/kg/day, 4 weeks, end of treatment): 0.549 ± 0.04%
